Measurements gathered from unrelated publications.
Protocols differ between the studies behind these lines. Numbers after ± are the reported error.
Chain of UniProt P24463 (whole entry, looked up): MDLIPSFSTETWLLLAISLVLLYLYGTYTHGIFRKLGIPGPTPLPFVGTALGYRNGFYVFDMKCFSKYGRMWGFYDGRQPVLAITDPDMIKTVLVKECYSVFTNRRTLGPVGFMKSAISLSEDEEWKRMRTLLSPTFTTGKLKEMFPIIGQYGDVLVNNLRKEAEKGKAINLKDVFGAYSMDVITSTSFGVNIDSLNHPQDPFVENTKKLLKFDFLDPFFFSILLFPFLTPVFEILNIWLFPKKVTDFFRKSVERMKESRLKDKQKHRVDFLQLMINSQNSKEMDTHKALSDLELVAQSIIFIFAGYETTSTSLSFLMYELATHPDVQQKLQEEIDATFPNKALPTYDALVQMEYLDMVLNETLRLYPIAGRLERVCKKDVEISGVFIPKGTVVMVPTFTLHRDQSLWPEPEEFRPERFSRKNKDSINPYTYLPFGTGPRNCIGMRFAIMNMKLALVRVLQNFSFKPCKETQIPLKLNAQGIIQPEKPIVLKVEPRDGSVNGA
Chain of UniProt O75469 (whole entry, looked up): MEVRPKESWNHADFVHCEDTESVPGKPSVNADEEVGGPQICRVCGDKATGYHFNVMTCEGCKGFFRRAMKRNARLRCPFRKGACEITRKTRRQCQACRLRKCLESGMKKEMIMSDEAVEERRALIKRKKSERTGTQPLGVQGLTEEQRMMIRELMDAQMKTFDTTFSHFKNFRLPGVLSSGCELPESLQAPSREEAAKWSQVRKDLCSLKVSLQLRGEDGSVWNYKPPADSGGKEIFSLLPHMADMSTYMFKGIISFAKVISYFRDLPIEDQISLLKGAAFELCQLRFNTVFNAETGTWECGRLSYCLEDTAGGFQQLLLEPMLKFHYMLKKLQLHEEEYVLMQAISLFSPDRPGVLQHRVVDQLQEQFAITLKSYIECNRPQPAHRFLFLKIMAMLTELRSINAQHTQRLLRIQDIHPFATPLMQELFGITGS
Chain of UniProt P08684 (whole entry, looked up): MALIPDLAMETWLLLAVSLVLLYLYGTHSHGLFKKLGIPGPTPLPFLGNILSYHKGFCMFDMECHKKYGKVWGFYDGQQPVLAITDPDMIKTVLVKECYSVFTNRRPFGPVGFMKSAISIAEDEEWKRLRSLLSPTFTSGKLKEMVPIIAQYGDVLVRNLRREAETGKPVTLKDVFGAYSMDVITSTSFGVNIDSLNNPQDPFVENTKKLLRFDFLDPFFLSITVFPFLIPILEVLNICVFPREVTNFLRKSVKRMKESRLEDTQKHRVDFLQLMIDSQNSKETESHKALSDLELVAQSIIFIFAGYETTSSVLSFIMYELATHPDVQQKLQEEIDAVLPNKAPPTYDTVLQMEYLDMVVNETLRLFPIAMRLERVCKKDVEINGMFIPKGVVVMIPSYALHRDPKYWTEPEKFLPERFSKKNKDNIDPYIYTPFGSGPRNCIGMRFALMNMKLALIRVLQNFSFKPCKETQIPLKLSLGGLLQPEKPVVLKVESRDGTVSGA

N[C@H](CSC(F)(F)[18F])C(=O)O — tracer uptake (C6 tumour model; male nude, tumour; intravenous, 3.7 MBq, 1 h, tumour-bearing): 3.74 %ID/g
Clc1cc(Cl)cc(CNCCCNc2nc3ccccc3[nH]2)c1 — selectivity index (Trypanosoma brucei; baseline: MRC-5 SV2 TC50 over EC50): 1380
O=C(O)CCC(NP(=O)(O)OCCC[C@@H](NC(=O)CC[C@H](NC(=O)CCCCCNC(=O)c1ccc([18F])cc1)C(=O)O)C(=O)O)C(=O)O (some centres unmarked) — tracer uptake (CWR22Rv1 tumour model; host not given, bone; 1 h, tumour-bearing): 0.193 %ID/g
CCCN(CC(=O)N(CCC)CC(=O)N(CCC)CC(=O)N(CCC)CC(=O)N(CC(=O)N(CCC)CC(=O)N(CCC)CC(=O)N(CCC)CC(=O)N(CCC)CC(=O)N(CC(=O)N(CCC)CC(=O)N(CCC)CC(=O)N(CCC)CC(=O)N(CCC)CC(=O)N(CC(N)=O)Cc1cn(CCCNC(=O)CCCOc2cccc(-c3nc4ccc(-c5nc6ccc(N7CCN(C)CC7)cc6[nH]5)cc4[nH]3)c2)nn1)Cc1cn(CCCNC(=O)CCCOc2cccc(-c3nc4ccc(-c5nc6ccc(N7CCN(C)CC7)cc6[nH]5)cc4[nH]3)c2)nn1)Cc1cn(CCCNC(=O)CCCOc2cccc(-c3nc4ccc(-c5nc6ccc(N7CCN(C)CC7)cc6[nH]5)cc4[nH]3)c2)nn1)C(=O)CNCc1cn(CCCNC(=O)CCCOc2cccc(-c3nc4ccc(-c5nc6ccc(N7CCN(C)CC7)cc6[nH]5)cc4[nH]3)c2)nn1 — non-fluorescent cells (C2C12; flow cytometry; 5 µM, 48 h): 8.9%
CC(C)[C@H](NC(=O)CNC(=O)[C@H](CCC(N)=O)NC(=O)[C@H](C)N)C(=O)O — Cmax (human, both sexes, plasma; intravenous infusion, 15 mg/kg/h, 2 h infusion, geometric mean): 441 ng/mL
CCCC[C@H](NC(=O)CNC(=O)CNC(=O)CN1CCN(CC(=O)O)CCN(CC(=O)O)CC1)C(=O)N[C@H]1CC(=O)NCCCC[C@@H](C(N)=O)NC(=O)[C@H](Cc2c[nH]c3ccccc23)NC(=O)[C@H](CCCNC(=N)N)NC(=O)[C@@H](Cc2ccccc2)NC(=O)[C@H](Cc2c[nH]cn2)NC1=O [gallium-67 labelled] — tumour to tissue uptake ratio (C57 mice, female, B16/F1 melanoma, tumour over blood; intravenous, 0.037 MBq, 4 h): 17.8
CCC(=O)N(C)c1ccc(Cl)c(Cl)c1 — fold activation (NR1I2 (Homo sapiens, UniProt O75469); reporter gene, agonist; 1.0 µM; baseline: vehicle): 0.48 fold
CCOc1ccccc1-c1nc(CC(=O)N2CCc3sccc3C2)cs1 — EC50 (Trypanosoma brucei; cell viability, flow cytometry, PI; bloodstream form; 24 h): ~25 µM
CC(=O)N[C@H](C(=O)N[C@H](C(=O)N[C@@H](CCCNC(=N)N)C(=O)N1Cc2ccccc2C[C@H]1C(=O)N[C@@H](Cc1ccccc1)C(N)=O)C1CCCCC1)C(C)C — cytokine level (human PBMC; Bio-Plex multiplex, item: IP-10; 500 µg/mL, 24 h): 8310 ± 4560 pg/mL
[64Cu+2].c1cnc(CNCc2ccc(CN3CCCN4CCNCCCN(CC4)CC3)cc2)nc1 — tissue uptake (CXCR4 (human); NOD/SCID mice, U87 xenografts, small intestine; 120 min post-injection): 6.96 ± 0.79 %ID/g
Cc1cc(C(=O)Nc2nc3cccc(C)c3n2[C@H]2CCCCN(C(=O)/C=C/CN(C)C)C2)ccn1 — selectivity ratio (Trypanosoma brucei; HepG2; 4 days; baseline: HepG2 CC50 over T. brucei EC50): > 100 fold
CCCN(CC(=O)N(CCC)CC(=O)N(CCC)CC(=O)N(CCC)CC(=O)N(CC(=O)N(CCC)CC(=O)N(CCC)CC(=O)N(CCC)CC(=O)N(CCC)CC(=O)N(CC(N)=O)Cc1cn(CCCNC(=O)CCCOc2cccc(-c3nc4ccc(-c5nc6ccc(N7CCN(C)CC7)cc6[nH]5)cc4[nH]3)c2)nn1)Cc1cn(CCCNC(=O)CCCOc2cccc(-c3nc4ccc(-c5nc6ccc(N7CCN(C)CC7)cc6[nH]5)cc4[nH]3)c2)nn1)C(=O)CNCc1cn(CCCNC(=O)CCCOc2cccc(-c3nc4ccc(-c5nc6ccc(N7CCN(C)CC7)cc6[nH]5)cc4[nH]3)c2)nn1 — ligand- and PI-positive cells (C2C12; flow cytometry; 5 µM, 48 h): 4.1%
Clc1ccc(CNCCCNc2nc3ccccc3[nH]2)cc1 — selectivity index (Trypanosoma brucei; baseline: MRC-5 SV2 TC50 over EC50): 23
Cn1c(=O)oc2ccc(-c3ccc(CC(C#N)NC(=O)C4CNCCCO4)c(F)c3)cc21 (centres unmarked) — subjects with TEAE (item: glucose urine present; human; 80 mg single dose, fasted): 0%
[64Cu+2].c1ccc(CNCc2ccc(CN3CCCN4CCNCCCN(CC4)CC3)cc2)nc1 — tissue uptake (CXCR4 (human); NOD/SCID mice, U87 xenografts, small intestine; 60 min post-injection): 4.97 ± 0.96 %ID/g
C=CC(=O)Nc1cc(Nc2nccc(-c3cn(C)c4ccccc34)n2)c(OCC(F)(F)F)nc1N(C)CCN(C)C — activity vs control (Cytochrome P450 3A4 (CYP3A4, Homo sapiens, UniProt P08684); enzyme activity, inhibitor; human, liver microsomes; 3.33 µM, testosterone probe): 112%
NS(=O)(=O)Nc1ncnc(OCCOc2ncc(Br)cn2)c1-c1ccc(Br)cc1 — contribution to clearance (Cytochrome P450 3A12 (Canis lupus familiaris, UniProt P24463); item: compound formation; dog male): 100%

Excerpt of the above:
[64Cu+2].c1cnc(CNCc2ccc(CN3CCCN4CCNCCCN(CC4)CC3)cc2)nc1 — tissue uptake (CXCR4 (human); NOD/SCID mice, U87 xenografts, small intestine; 120 min post-injection): 6.96 ± 0.79 %ID/g
